Experimental data pooled from the literature.
Compare with care: the assays were run in different laboratories. ± marks the error that the study gave.
Cell line: RAW264.7

Compound	assay	setting	scale	endpoint	result
COC1=C[C@@H]2[C@@H]3Cc4c(Br)cc(OC)c(OC(=O)c5ccncn5)c4[C@]2(CCN3C)CC1=O	NO release, inhibitor, Griess	LPS-stimulated	–	IC50	58.8 µM
CCCCn1cc(C(=O)O)c(=O)c2cc(F)c3c(nnn3-c3cccc(Cl)c3)c21	nitric oxide production, Griess	24 h, added: LPS	–	IC50	32.2 ± 4.94 mg/L
Cc1ccc(C(C)C)c(OC(=O)COC(=O)Cn2cnc3c2c(=O)n(C)c(=O)n3C)c1	NO release, inhibitor, Griess	25 µM, LPS-stimulated	–	inhibition	74%
CC(C)C[C@@H](NC(=O)[C@H]1CCCN1C(=O)[C@@H](CC(C)C)NC(=O)[C@@H](Cc1c[nH]c2ccccc12)NC(=O)[C@@H](CCCCN)NC(=O)[C@@H](CCCCN)NC(=O)[C@@H](C)NC(=O)[C@@H](CC(C)C)NC(=O)[C@@H](C)NC(=O)[C@@H](CC(C)C)NC(=O)[C@@H](C)NC(=O)[C@@H](CC(C)C)NC(=O)[C@@H](CCCCN)NC(=O)[C@H](N)CCCCN)C(=O)N[C@H](C)C(=O)N[C@H](CCCCN)C(=O)N[C@H](CCCCN)C(=O)N[C@H](CC(C)C)C(=O)N[C@H](C)C(=O)N[C@H](CC(C)C)C(=O)N[C@H](C)C(=O)N[C@H](CC(C)C)C(=O)N[C@H](C)C(=O)N[C@H](CCCCN)C(=O)N[C@H](CCCCN)C(N)=O	cytotoxicity, MTT	four hours, 37 °C, serum-free medium	–	EC50	3.42 ± 0.16 µM
CC[C@H](C)[C@H](N)C(=O)Oc1c(OC)ccc2c1[C@@]13CCN(C)[C@@H](C2)[C@H]1C=C(OC)C(=O)C3	NO release, inhibitor, Griess	LPS-stimulated	–	IC50	60.4 µM
CC(C)C[C@@H](NC(=O)[C@@H](C)NC(=O)[C@@H](CCCCN)NC(=O)[C@@H](CC(C)C)NC(=O)[C@@H](C)NC(=O)[C@H]1CCCN1C(=O)[C@@H](CC(C)C)NC(=O)[C@@H](Cc1c[nH]c2ccccc12)NC(=O)[C@@H](CCCCN)NC(=O)[C@@H](C)NC(=O)[C@@H](CC(C)C)NC(=O)[C@@H](C)NC(=O)[C@@H](Cc1c[nH]cn1)NC(=O)[C@@H](CCCCN)NC(=O)[C@@H](CC(C)C)NC(=O)[C@@H](C)NC(=O)[C@@H](CCCCN)NC(=O)[C@H](N)CCCCN)C(=O)N[C@H](C)C(=O)N[C@H](Cc1c[nH]cn1)C(=O)N[C@H](CCCCN)C(=O)N[C@H](CC(C)C)C(=O)N[C@H](C)C(=O)N[C@H](CCCCN)C(=O)N[C@H](CCCCN)C(N)=O	cytotoxicity, MTT	four hours, 37 °C, serum-free medium	–	EC50	3.95 ± 0.4 µM
Cn1c(=O)c2c(ncn2CC(=O)N/N=C/C=Cc2ccccc2)n(C)c1=O	NO release, inhibitor, Griess	25 µM, LPS-stimulated	–	inhibition	65.4%
COC1=C[C@@H]2[C@@H]3Cc4ccc(OC)c(OC(=O)CNC(=O)OC(C)(C)C)c4[C@]2(CCN3C)CC1=O	NO release, inhibitor, Griess	LPS-stimulated	–	IC50	42.3 µM
COc1cc(C=O)ccc1OC(=O)Cn1cnc2c1c(=O)n(C)c(=O)n2C	NO release, inhibitor, Griess	25 µM, LPS-stimulated	–	inhibition	65.4%
CC(C)C[C@@H](NC(=O)[C@@H](C)NC(=O)[C@@H](CC(C)C)NC(=O)[C@@H](CCCCN)NC(=O)[C@H](N)CCCCN)C(=O)N[C@H](Cc1c[nH]cn1)C(=O)N[C@H](C)C(=O)N[C@H](CC(C)C)C(=O)N[C@H](CCCCN)C(=O)N[C@H](CCCCN)C(=O)N[C@H](Cc1c[nH]c2ccccc12)C(=O)N[C@H](CC(C)C)C(=O)N[C@H](Cc1c[nH]cn1)C(=O)N[C@H](C)C(=O)N[C@H](CC(C)C)C(=O)N[C@H](CCCCN)C(=O)N[C@H](CCCCN)C(=O)N[C@H](CC(C)C)C(=O)N[C@H](C)C(=O)N[C@H](Cc1c[nH]cn1)C(=O)N[C@H](CC(C)C)C(=O)N[C@H](C)C(=O)N[C@H](CC(C)C)C(=O)N[C@H](CCCCN)C(=O)N[C@H](CCCCN)C(N)=O	cytotoxicity, MTT	four hours, 37 °C, serum-free medium	–	EC50	5.21 ± 0.57 µM
COC1=C[C@@H]2[C@@H]3Cc4ccc(OC)c(OC(=O)[C@H](CC(C)C)NC(=O)OC(C)(C)C)c4[C@]2(CCN3C)CC1=O	NO release, inhibitor, Griess	LPS-stimulated	–	IC50	59.5 µM
C=CCc1ccc(OC(=O)COC(=O)Cn2cnc3c2c(=O)n(C)c(=O)n3C)c(OC)c1	ELISA, refers to: IL-1β	10 µM, added: LPS	reference: LPS alone	inhibition	61%
CC(C)C[C@@H](NC(=O)[C@@H](C)NC(=O)[C@@H](CC(C)C)NC(=O)[C@@H](CCCCN)NC(=O)[C@H](N)CCCCN)C(=O)N[C@H](C)C(=O)N[C@H](CC(C)C)C(=O)N[C@H](C)C(=O)N[C@H](CCCCN)C(=O)N[C@H](CCCCN)C(=O)N[C@H](Cc1c[nH]c2ccccc12)C(=O)N[C@H](CC(C)C)C(=O)N[C@H](C)C(=O)N[C@H](CC(C)C)C(=O)N[C@H](C)C(=O)N[C@H](CCCCN)C(=O)N[C@H](CCCCN)C(=O)N[C@H](CC(C)C)C(=O)N[C@H](C)C(=O)N[C@H](CC(C)C)C(=O)N[C@H](C)C(=O)N[C@H](CC(C)C)C(=O)N[C@H](C)C(=O)N[C@H](CCCCN)C(=O)N[C@H](CCCCN)C(N)=O	cytotoxicity, MTT	four hours, 37 °C, serum-free medium	–	EC50	7.31 ± 2.13 µM
CCCCn1cc(C(=O)O)c(=O)c2cc(F)c(Nc3ccccc3Cl)c(N)c21	NO release, inhibitor, Griess	LPS-stimulated	–	IC50	140 µM
COC1=C[C@@H]2[C@@H]3Cc4c(Br)cc(OC)c(OC(=O)c5cnc(C)cn5)c4[C@]2(CCN3C)CC1=O	NO release, inhibitor, Griess	LPS-stimulated	–	IC50	48.7 µM
COc1ccc(-n2cc(C(=O)N3C[C@]4(OC(=O)c5ccccc5NC(C)=O)CC[C@H](OC)[C@@]56[C@@H]4C[C@@H]([C@@H]35)[C@@]3(O)C[C@H](OC)[C@H]4C[C@@H]6[C@]3(O)[C@H]4OC)nn2)cc1	western blot	30, 60 or 120 µM, 24 h, added: LPS 1 µg/mL	–	p-IkBa/IkBa ratio	decreased

A few entries again:
Compound	assay	setting	scale	endpoint	result
COC1=C[C@@H]2[C@@H]3Cc4ccc(OC)c(OC(=O)[C@H](CC(C)C)NC(=O)OC(C)(C)C)c4[C@]2(CCN3C)CC1=O	NO release, inhibitor, Griess	LPS-stimulated	–	IC50	59.5 µM
